Results gathered from unrelated publications.
Protocols differ between the studies behind these lines. “And” joins repeats or separate records; there may be more than shown. ± gives the spread as reported.

| SMILES | assay | test system | conditions | how to read | measurement | result |
| --- | --- | --- | --- | --- | --- | --- |
| CCN1/C(=C/C(C)=O)Sc2ccc(F)cc21 |  | cynomolgus monkey | oral, 30 mg/kg, 6 h post-dose | baseline: pre-dose | heart rate change | 87.3 ± 20.6% |
| Cc1c(C(=O)O)ccc2c3n(nc12)[C@@H]1[C@H](C3)N(CC2CC2)[C@@]2(C(=O)Nc3cc(Cl)ccc32)[C@H]1c1cccc(Cl)c1F |  | female BALB/c nude mice, plasma | oral, 2 mg/kg once daily, 7 h, SJSA-1 tumour-bearing |  | plasma concentration | 1480 nM and 1240 nM and 1070 nM |
| Cn1cc([C@@H]2COC[C@@](C)(c3ccccc3)N2)cn1 | shake-flask, LC-HRMS | aqueous buffer | 16 h, pH 6.8 |  | solubility | > 750 µM |
| COc1cc(C(=O)N2CCC3(CC2)CC(=O)c2c(cnn2C(C)C)C3)cc(-c2ccc(C(=O)O)cc2)n1 |  | human, fasting serum | 40 mg once daily, day 13, adjusted geometric mean | baseline: placebo | HDL cholesterol change from baseline | -13.7% |
| Cc1cc([C@H]2C[C@H]3[C@@H](C)SC(N)=N[C@@]3(c3ccc(F)cc3F)CO2)on1 |  | male 129/SVE mouse, CSF | subcutaneous, 50 mg/kg, 1 h |  | CSF concentration | 2350 nM |
| O=C(Nc1cnccc1Cl)N1CCN(Cc2ccc3c(c2)OC(F)(F)O3)CC1 | measured: Presyncope | human healthy young men | 75 mg, multiple dose |  | adverse event incidence | 0% |
| COc1nc(-c2cc(C)c(N[C@@H](C)c3cc(F)cc(F)c3)nn2)ccc1-n1cnc(C)c1 |  | cynomolgus monkey, male, plasma | intravenous, 1 mg/kg |  | MRT(0-t) | 2.83 h |
| CCC[C@H]1CC[C@H](c2ccc(C#N)cc2)CC1 |  | Sprague-Dawley rat, female, placenta | 5000 ng/mL in perfusate, 50 (unit not given), high dose, mixture of 21 LCMs |  | placental accumulation | 816 ± 943 ng/g |
| O=[N+]([O-])c1ccc(-c2ccc(O)cc2)c2cccnc12 |  | male ICR mouse, plasma | oral, 5 mg/kg |  | AUC(0-inf) | 33.5 ng·h/mL |
| Cn1cc(Nc2nccc(-c3ccc4c(c3)CN(C3COC3)CC[C@H]4NC(=O)c3cn(C(C)(C)C)nn3)n2)cn1 |  | human, whole blood | 150 mg twice daily, day 14 | baseline: pre-dose baseline | monocyte count change | -12.4% |
| CCOC(=O)N1C[C@@H]([C@H]2CCOC2)N[C@@H](C(C)(C)C)C1 | shake-flask, LC-HRMS | aqueous buffer | 16 h, pH 6.8 |  | solubility | > 750 µM |
| N#Cc1ccc2c(c1)[C@H]1CCCN(C(=O)c3ccc4[nH]cnc4c3)[C@H]1C2 |  | human | 20 mg, day 15 |  | median ACTH level | 7.9 pmol/L |
| CCOc1c([C@H](C)n2nc(C)c3c(N)ncnc32)cc(Cl)c(F)c1[C@@H]1CNC(=O)C1 | measured: QTcF > 500 ms | previously treated B-cell malignancy | oral, dose not given, all doses, overall population |  | share of ECG observations | 0% |
| C[C@@H](Nc1cc(F)cc(F)c1)c1cc(C(=O)N(C)C)cc2c(=O)cc(N3CCOCC3)oc12 | measured: Diarrhea | advanced solid tumour patients | oral, dose not given, dose finding |  | related serious adverse events | 3.2% |
| CC(C)(C)c1ccc([C@H]2COC[C@H](C3CCCC3)N2)cc1 | shake-flask, LC-HRMS | aqueous buffer | 16 h, pH 6.8 |  | solubility | < 4 µM |
| C[C@@H](Oc1ccc(S(C)(=O)=O)cc1C(=O)N1C[C@@H]2C[C@]2(c2cc(C(F)(F)F)on2)C1)C(F)(F)F |  | healthy young humans, plasma | oral, 75 mg once daily | baseline: AUCtau,ss over AUC(0-inf) | linearity index | 0.899 |
| CCOC(=O)N1C[C@@H](C2CCCC2)N[C@@H](c2ccc(C(F)(F)F)cc2)C1 | shake-flask, LC-HRMS | aqueous buffer | 16 h, pH 6.8 |  | solubility | < 4 µM |
| COc1cc(OC)c(NC(=O)CSc2nnc(-c3ccncc3)n2-c2ccccc2)cc1Cl |  | aqueous buffer | pH 7.4 |  | solubility | < 2.58 µg/mL |
| CN(C)C(=N)N=C(N)N | measured: Dizziness | healthy human | oral, dose not given |  | subjects with adverse event | 8.3% |
| CNC(=O)c1ccc(-c2cnc3ncc(Cc4ccc5ncccc5c4)n3n2)cc1F | CTCAE v4.0, any causality | human gastric cancer patients | oral, 600 mg twice daily, expansion cohort at RP2D |  | decreased appetite incidence (all grades) | 11% |
| Cc1c(-c2ccc(N3CCc4cccc(C(=O)Nc5nc6ccccc6s5)c4C3)nc2C(=O)O)cnn1CC12CC3(C)CC(C)(C1)CC(OCCNCC[C@H](O)CO)(C3)C2 |  | beagle dog, male, anaesthetised | intravenous infusion, 0.3 mg/kg/min, 120 min | baseline: vehicle | QRS duration change | -2 ms |

| SMILES | assay | test system | conditions | how to read | measurement | result |
| --- | --- | --- | --- | --- | --- | --- |
| CN1CCN(c2cccc3c2CCN(C(=O)/C=C/c2c(-n4cnnn4)ccc(Cl)c2F)[C@@H]3C(=O)Nc2ccc(C(=O)O)cc2)C(=O)C1 |  | healthy human subjects | intravenous infusion, 4 mg/h, 2 h |  | discontinuations due to adverse events | 0% |
| CCCC(=O)Nc1cc(C2CC2)[nH]n1 |  | aqueous buffer | pH 7.4 |  | solubility | 1180 µg/mL |
| CNCc1ccc(-c2[nH]c3cc(F)cc4c3c2CCNC4=O)cc1 |  | human patients | oral, 600 mg twice daily, grade 5 |  | vomiting incidence | 0% |
| O=c1[nH]c(=O)n([C@H]2C[C@H](O)[C@@H](CO)O2)cc1CCC[18F] |  | male CD-1 nu/nu mice, RG2 tumour, liver | intravenous, dose not given, 2 h |  | biodistribution | 0.39 ± 0.12 %ID/g |
| CC(C)=CCC/C(C)=C/C(=O)O.Cc1cc(/C=C/C#N)cc(C)c1Nc1ccnc(Nc2ccc(C#N)cc2)n1 |  | buffer | pH 6.8, quantification limit 50 ng/mL |  | equilibrium solubility | not detected |
| NC(=O)N1c2ccccc2C=Cc2ccccc21 | measured: total adverse events | human male | oral, dose not given, CTCAE on-treatment AEs |  | adverse events incidence | 73% |
| C[C@H]1CN(C(=O)CC#N)[C@]12CCN(c1ncnc3[nH]ccc13)C2 |  | human | oral, dose not given, all compound groups |  | participants with catheter site bruise | 6.3% |
| CC(=O)N(C)[C@H]1CCN(C(=O)c2cnc3c(c2)C[C@](C)(c2ccc(F)cc2)N3)C1 |  | human | dose not given |  | aspartate aminotransferase | 497 U/L |
| CC/C(=C(/c1ccc(OCCNC)cc1)c1ccc(B2OC(C)(C)C(C)(C)O2)cc1)c1ccccc1 |  | C57BL/6 mouse | dose not given, within 24 h |  | conversion to endoxifen | 80 to 90% |
| CCOC(=O)N1C[C@@H](C2CCCC2)N[C@@H](c2ccc(-c3ccccc3)cc2)C1 | shake-flask, LC-HRMS | aqueous buffer | 16 h, pH 6.8 |  | solubility | < 4 µM |
| Cc1cc(Nc2ncnc3ccc(NC4=NC(C)(C)CO4)cc23)ccc1Oc1ccn2ncnc2c1 | measured: Pruritus | healthy volunteers | oral, dose not given, grade 1-2 |  | drug-related adverse events | 7.7% |
| COc1ccc(CNc2nc(-c3ccc(C(=O)O)cc3)nc3c2c2ccccc2n3C)cc1Cl |  | NSG mice | dose not given, day 3 |  | body weight | 23.6 g and 20.3 g and 23.9 g and 25.2 g |
| CCCC1CCC(C2CCC(c3cc(F)c(F)c(F)c3)CC2)CC1 (stereo not drawn) |  | rat, placenta | 1000 ng/mL in perfusate, middle dose, mixture of 21 LCMs |  | placental accumulation | 15.2 ± 19.7 ng/g |
| CCOC(=O)N1C[C@@H](c2ccc(F)cc2)N[C@@H](C2CC2)C1 | shake-flask, LC-HRMS | aqueous buffer | 16 h, pH 6.8 |  | solubility | > 750 µM |
| CCCCOC(=O)N1CCN(C(=O)[C@H](CP(=O)(O)O)NC(=O)c2cc(N3CC[C@H](OC)C3)nc(-c3ccccc3)n2)CC1 | measured: aspartate aminotransferase | human, serum | 8 mg, 24 h post-dose |  | change from baseline | -1.3 ± 3.9 U/L |
| O=C(OC(C(F)(F)F)C(F)(F)F)N1CCN(Cc2cccc(Oc3ccccc3)c2)CC1 | PET blocking study | rhesus monkey, brain FCX | 0.3 mg/kg, compound pretreatment, with: [18F]T-401 tracer |  | Ktrans | 0.0045 min⁻¹ |
| CC(C)c1nc(N(C)S(C)(=O)=O)nc(-c2ccc(F)cc2)c1/C=C/[C@@H](O)C[C@@H](O)CC(=O)O |  | cynomolgus monkey hepatocytes | 37 °C, 10% monkey serum |  | total uptake clearance | 29.9 µL/min/10⁶ cells |
| C[C@H](CCC(=O)NCCS(=O)(=O)O)[C@H]1CC[C@H]2[C@@H]3CC[C@@H]4C[C@H](O)CC[C@]4(C)[C@H]3C[C@H](O)[C@]12C |  | human, plasma | control |  | Cmin | 6.85 ± 1.76 nM |
| C[C@]12CC[C@@H]3c4ccc(O)cc4CC[C@H]3[C@@H]1CC[C@@H]2O |  | immature female Sprague-Dawley rat | oral, dose not given, 4 days once daily, uterotrophic | baseline: vehicle | uterine weight | increased |
| CCO[C@H]1CCN(Cc2c(OC)cc(C)c3[nH]ccc23)[C@H](c2ccc(C(=O)O)cc2)C1 |  | healthy volunteers, plasma | oral, 200 mg single dose, geometric mean |  | total AUC(0-inf) | 52300 ng·h/mL |
| CC(C)(C(=O)N1CCOc2c(C#N)cncc2C1)C(F)F | measured: Dizziness | human | oral, 15 mg twice daily, 14 days, multiple ascending dose |  | subjects with adverse event | 12.5% |

Excerpt of the above:
| SMILES | assay | test system | conditions | how to read | measurement | result |
| --- | --- | --- | --- | --- | --- | --- |
| CN1CCN(c2cccc3c2CCN(C(=O)/C=C/c2c(-n4cnnn4)ccc(Cl)c2F)[C@@H]3C(=O)Nc2ccc(C(=O)O)cc2)C(=O)C1 |  | healthy human subjects | intravenous infusion, 4 mg/h, 2 h |  | discontinuations due to adverse events | 0% |
| CCC[C@H]1CC[C@H](c2ccc(C#N)cc2)CC1 |  | Sprague-Dawley rat, female, placenta | 5000 ng/mL in perfusate, 50 (unit not given), high dose, mixture of 21 LCMs |  | placental accumulation | 816 ± 943 ng/g |
| O=[N+]([O-])c1ccc(-c2ccc(O)cc2)c2cccnc12 |  | male ICR mouse, plasma | oral, 5 mg/kg |  | AUC(0-inf) | 33.5 ng·h/mL |
| CCOc1c([C@H](C)n2nc(C)c3c(N)ncnc32)cc(Cl)c(F)c1[C@@H]1CNC(=O)C1 | measured: QTcF > 500 ms | previously treated B-cell malignancy | oral, dose not given, all doses, overall population |  | share of ECG observations | 0% |
| Cn1cc([C@@H]2COC[C@@](C)(c3ccccc3)N2)cn1 | shake-flask, LC-HRMS | aqueous buffer | 16 h, pH 6.8 |  | solubility | > 750 µM |
| CC(C)c1nc(N(C)S(C)(=O)=O)nc(-c2ccc(F)cc2)c1/C=C/[C@@H](O)C[C@@H](O)CC(=O)O |  | cynomolgus monkey hepatocytes | 37 °C, 10% monkey serum |  | total uptake clearance | 29.9 µL/min/10⁶ cells |
